Measurements pooled from the literature.
A part holds a random share of what one study measured. Several values in a cell are separate wells, animals, samples, runs or records.
UniProt O15146, sequence (whole entry, looked up): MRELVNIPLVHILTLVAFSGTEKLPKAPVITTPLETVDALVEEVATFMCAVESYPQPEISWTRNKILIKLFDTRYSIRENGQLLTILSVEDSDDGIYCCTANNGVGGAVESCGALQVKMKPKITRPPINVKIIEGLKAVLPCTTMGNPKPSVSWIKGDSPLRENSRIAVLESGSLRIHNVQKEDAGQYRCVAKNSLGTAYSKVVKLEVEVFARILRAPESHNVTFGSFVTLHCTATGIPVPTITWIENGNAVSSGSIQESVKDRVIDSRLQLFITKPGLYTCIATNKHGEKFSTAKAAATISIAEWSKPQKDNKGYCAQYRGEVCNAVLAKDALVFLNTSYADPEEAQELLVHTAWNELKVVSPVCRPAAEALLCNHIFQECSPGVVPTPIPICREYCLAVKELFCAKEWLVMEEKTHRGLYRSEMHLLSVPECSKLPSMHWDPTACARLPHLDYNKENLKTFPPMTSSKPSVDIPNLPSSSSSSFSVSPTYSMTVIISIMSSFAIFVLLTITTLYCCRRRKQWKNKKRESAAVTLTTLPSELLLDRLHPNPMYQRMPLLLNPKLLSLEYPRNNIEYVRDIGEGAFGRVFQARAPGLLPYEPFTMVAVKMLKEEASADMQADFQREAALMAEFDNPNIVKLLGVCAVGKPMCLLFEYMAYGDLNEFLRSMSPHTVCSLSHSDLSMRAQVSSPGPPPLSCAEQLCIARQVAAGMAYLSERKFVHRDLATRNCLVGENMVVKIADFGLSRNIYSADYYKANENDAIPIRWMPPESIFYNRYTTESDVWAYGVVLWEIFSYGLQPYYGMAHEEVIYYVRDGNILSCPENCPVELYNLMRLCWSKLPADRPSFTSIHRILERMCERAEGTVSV
UniProt Q9P286, sequence (whole entry, looked up): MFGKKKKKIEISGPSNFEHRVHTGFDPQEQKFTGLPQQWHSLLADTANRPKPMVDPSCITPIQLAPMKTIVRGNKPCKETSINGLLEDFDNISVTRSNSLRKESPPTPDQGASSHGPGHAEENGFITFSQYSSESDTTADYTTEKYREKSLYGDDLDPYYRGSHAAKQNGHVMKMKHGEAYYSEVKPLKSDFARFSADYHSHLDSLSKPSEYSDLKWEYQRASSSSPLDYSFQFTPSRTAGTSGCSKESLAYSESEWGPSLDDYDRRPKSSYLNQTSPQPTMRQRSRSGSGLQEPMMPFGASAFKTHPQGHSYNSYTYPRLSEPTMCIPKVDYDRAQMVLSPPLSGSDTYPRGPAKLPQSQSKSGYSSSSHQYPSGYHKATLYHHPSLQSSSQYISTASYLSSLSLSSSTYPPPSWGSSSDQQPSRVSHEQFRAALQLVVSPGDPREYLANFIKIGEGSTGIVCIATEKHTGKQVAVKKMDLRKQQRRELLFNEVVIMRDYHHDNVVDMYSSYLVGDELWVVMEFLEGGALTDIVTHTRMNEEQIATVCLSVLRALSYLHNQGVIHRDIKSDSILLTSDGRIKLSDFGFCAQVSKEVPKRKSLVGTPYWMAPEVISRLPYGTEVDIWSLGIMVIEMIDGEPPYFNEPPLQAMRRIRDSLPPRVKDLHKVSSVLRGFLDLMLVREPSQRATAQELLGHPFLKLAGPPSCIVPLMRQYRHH
UniProt P51812, sequence (whole entry, looked up): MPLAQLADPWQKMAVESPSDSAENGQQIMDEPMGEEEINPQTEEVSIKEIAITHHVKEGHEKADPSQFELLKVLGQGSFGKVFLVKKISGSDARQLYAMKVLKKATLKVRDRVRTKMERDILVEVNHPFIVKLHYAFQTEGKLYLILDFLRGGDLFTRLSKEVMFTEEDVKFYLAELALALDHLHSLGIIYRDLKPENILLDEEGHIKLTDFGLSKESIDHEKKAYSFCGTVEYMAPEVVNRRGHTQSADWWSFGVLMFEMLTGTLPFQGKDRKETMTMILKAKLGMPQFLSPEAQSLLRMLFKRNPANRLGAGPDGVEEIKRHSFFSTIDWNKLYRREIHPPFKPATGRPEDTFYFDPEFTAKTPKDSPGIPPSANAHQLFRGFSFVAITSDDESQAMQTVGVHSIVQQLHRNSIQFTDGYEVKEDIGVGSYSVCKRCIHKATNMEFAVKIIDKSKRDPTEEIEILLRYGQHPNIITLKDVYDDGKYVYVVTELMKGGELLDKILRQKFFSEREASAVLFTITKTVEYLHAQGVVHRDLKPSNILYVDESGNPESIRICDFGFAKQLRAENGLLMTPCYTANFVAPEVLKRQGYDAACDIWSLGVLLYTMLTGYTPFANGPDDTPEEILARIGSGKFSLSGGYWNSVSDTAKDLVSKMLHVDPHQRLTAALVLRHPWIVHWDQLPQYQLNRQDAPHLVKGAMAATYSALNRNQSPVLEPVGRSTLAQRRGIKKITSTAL
UniProt P49759, sequence (whole entry, looked up): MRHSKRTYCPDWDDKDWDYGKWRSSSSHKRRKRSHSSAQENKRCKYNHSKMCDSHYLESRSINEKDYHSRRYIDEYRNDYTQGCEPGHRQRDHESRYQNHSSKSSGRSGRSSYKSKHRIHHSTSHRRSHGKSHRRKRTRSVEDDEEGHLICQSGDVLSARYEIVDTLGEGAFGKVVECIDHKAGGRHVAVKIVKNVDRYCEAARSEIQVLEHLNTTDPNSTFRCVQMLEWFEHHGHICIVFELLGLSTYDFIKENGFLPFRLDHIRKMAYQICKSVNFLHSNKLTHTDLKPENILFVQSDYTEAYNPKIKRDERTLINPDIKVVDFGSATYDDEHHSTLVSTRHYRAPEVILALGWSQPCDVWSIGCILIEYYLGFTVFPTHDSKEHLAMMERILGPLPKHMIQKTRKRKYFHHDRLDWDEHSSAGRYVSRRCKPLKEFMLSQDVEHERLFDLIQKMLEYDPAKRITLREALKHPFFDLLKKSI
UniProt P10721, sequence (whole entry, unmodified, looked up): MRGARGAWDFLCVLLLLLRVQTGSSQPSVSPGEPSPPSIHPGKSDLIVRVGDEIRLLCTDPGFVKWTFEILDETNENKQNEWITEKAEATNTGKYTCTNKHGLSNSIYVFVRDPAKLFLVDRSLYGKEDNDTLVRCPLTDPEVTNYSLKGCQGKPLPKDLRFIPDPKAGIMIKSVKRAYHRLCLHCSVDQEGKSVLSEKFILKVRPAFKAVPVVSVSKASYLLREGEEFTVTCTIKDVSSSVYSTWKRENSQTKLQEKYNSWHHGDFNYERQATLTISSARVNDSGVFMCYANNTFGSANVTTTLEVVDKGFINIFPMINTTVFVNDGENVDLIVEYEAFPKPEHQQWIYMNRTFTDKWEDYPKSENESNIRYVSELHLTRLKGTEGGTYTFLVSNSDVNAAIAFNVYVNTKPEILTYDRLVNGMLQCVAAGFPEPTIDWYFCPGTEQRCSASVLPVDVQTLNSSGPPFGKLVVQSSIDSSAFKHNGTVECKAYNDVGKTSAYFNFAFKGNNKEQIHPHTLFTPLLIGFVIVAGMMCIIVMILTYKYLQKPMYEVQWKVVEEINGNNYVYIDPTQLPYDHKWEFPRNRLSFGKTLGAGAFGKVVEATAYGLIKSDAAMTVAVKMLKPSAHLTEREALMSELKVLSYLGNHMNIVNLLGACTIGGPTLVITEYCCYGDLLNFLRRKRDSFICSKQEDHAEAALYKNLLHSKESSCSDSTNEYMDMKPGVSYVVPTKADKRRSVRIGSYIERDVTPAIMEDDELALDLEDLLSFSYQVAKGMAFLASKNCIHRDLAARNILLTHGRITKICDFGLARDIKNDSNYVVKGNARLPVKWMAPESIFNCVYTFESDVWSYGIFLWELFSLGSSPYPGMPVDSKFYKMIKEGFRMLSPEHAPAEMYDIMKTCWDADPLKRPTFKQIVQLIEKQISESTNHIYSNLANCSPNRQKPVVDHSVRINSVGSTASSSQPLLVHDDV
UniProt Q00535, sequence (whole entry, looked up): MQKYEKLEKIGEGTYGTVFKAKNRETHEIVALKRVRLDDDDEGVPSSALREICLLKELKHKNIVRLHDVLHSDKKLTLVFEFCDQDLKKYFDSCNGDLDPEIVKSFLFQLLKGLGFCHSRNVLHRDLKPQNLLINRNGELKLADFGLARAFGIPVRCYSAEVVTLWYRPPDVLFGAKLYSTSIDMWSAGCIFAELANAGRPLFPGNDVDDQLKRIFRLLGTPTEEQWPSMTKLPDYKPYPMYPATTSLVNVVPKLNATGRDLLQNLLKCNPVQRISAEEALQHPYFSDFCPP
UniProt Q06418, sequence (whole entry, looked up): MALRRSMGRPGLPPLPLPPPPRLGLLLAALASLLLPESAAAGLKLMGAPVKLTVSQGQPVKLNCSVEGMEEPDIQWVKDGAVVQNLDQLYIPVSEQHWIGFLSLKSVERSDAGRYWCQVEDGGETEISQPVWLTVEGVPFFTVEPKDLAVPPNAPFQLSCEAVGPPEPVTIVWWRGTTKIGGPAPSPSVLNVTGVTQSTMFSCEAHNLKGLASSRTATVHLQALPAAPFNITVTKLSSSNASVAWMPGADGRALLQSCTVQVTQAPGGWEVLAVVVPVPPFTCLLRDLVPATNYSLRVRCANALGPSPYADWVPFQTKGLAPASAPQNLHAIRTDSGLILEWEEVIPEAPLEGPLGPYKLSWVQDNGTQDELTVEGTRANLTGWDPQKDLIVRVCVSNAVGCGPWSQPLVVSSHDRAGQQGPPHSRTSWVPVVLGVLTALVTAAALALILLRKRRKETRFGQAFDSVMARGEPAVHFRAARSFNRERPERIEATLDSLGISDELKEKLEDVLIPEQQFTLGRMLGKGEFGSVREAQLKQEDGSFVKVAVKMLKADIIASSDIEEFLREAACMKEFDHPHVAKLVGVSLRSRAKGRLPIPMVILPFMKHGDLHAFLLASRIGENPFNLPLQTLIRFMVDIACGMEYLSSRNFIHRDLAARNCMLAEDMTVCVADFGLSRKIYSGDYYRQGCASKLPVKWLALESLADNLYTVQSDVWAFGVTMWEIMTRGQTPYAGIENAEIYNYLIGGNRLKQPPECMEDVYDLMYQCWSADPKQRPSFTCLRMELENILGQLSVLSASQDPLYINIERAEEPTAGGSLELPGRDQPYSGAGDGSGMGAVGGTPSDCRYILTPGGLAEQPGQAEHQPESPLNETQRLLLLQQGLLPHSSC

Sample 1
SMILES: COc1cc2ncc(-c3ccccc3)nc2cc1OC
Observed: enzyme activity
Action: inhibitor
Tested at: 0.5 µM
Baseline: control
For Cyclin-dependent kinase 5, with p35 (CDK5, Homo sapiens, UniProt Q00535): remaining activity read 95.8%.
It gave 91.1% for remaining activity (Insulin-like growth factor 1 receptor (IGF1R, Homo sapiens, UniProt P08069)).
For Dual specificity tyrosine-phosphorylation-regulated kinase 1A (DYRK1A, Homo sapiens, UniProt Q13627): remaining activity read 97.2%.
The remaining activity was 85% (Vascular endothelial growth factor receptor 1 (FLT1, Homo sapiens, UniProt P17948)).
Serine/threonine-protein kinase PAK 1 (PAK1, Homo sapiens, UniProt Q13153) — remaining activity: 91.3%.
For Muscle, skeletal receptor tyrosine-protein kinase (MUSK, Homo sapiens, UniProt O15146): remaining activity read 95.9%.
Ephrin type-A receptor 6 (EPHA6, Homo sapiens, UniProt Q9UF33) — remaining activity: 90.4%.
The remaining activity was 100% (Tyrosine-protein kinase receptor TYRO3 (TYRO3, Homo sapiens, UniProt Q06418)).
The remaining activity was 102% (Ephrin type-A receptor 2 (EPHA2, Homo sapiens, UniProt P29317)).
Serine/threonine-protein kinase PAK 5 (PAK5, Homo sapiens, UniProt Q9P286) — remaining activity: 85.6%.
Receptor tyrosine-protein kinase erbB-2 (ERBB2, Homo sapiens, UniProt P04626) — remaining activity: 116%.
The remaining activity was 91.5% (Tyrosine-protein kinase JAK1 (JAK1, Homo sapiens, UniProt P23458)).
It gave 102% for remaining activity (Dual specificity protein kinase CLK1 (CLK1, Homo sapiens, UniProt P49759)).
Ribosomal protein S6 kinase alpha-3 (RPS6KA3, Homo sapiens, UniProt P51812) — remaining activity: 101%.

Sample 2
SMILES: O=C1NC(c2ccccn2)Sc2ccccc21 (centres unmarked)
Tested at: 1 µM
It gave 81% for remaining binding (Cyclin-dependent kinase 2 (CDK2, Homo sapiens, UniProt P24941); cell-free assay, competition with immobilised ligand).
Cyclin-dependent kinase 15 (CDK15, Homo sapiens, UniProt Q96Q40); cell-free assay, competition with immobilised ligand — remaining binding: 63%.
The remaining binding was 88% (Serine/threonine-protein kinase SIK1 (SIK1, Homo sapiens, UniProt P57059); competition binding).
It gave 75% for remaining binding (Insulin receptor-related protein (INSRR, Homo sapiens, UniProt P14616); cell-free assay, competition with immobilised ligand).
The remaining binding was 79% (Mast/stem cell growth factor receptor Kit (KIT, Homo sapiens, UniProt P10721, D816H); cell-free assay, competition with immobilised ligand).
It gave 85% for remaining binding (Wee1-like protein kinase 2 (WEE2, Homo sapiens, UniProt P0C1S8); cell-free assay, competition with immobilised ligand).
It gave 72% for remaining binding (Receptor-interacting serine/threonine-protein kinase 4 (RIPK4, Homo sapiens, UniProt P57078); cell-free assay, competition with immobilised ligand).
The remaining binding was 82% (MAP kinase-interacting serine/threonine-protein kinase 1 (MKNK1, Homo sapiens, UniProt Q9BUB5); cell-free assay, competition with immobilised ligand).

Sample 3
Target: Histone acetyltransferase KAT6A, both winged helices, GST fusion (KAT6A, Homo sapiens, UniProt Q92794, residues 1-181)
Method: protein binding microarray
Molecule type: double-stranded DNA, one strand shown
Medium: in vitro
Tested at: not given
Notes: 8-mer, flanks averaged, mean of 2 arrays, mostly near background
Baseline: not given
Direction: higher = stronger binding
Residues (chain): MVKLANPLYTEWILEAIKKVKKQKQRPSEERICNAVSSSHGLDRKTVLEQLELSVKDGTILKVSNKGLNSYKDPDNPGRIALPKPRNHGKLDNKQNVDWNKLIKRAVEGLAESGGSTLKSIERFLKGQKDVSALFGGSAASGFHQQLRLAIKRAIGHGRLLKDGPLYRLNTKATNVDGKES
With `TAATATGA` the E-score was -0.0788.
With `AATATTGT` the E-score was -0.0233.
`ACTTGTGA` has an E-score of -0.0548.
`AACTTCGG` has an E-score of -0.0438.
`CCCGTCTC` gave an E-score of 0.223.
The E-score of `AATCTTGA` is reported as -0.0969.
`CGCCGACG` gave an E-score of 0.333.
The E-score of `ACACCAAT` is reported as -0.112.

Other studies, line by line
c1ccc2c(-c3nn4c(-c5ccncc5)nnc4s3)c[nH]c2c1 gave a reporter signal of 191% and 178% and 195% and 228% and 185% and 220% and 201% (HEK293T ATF4-firefly luciferase reporter; integrated stress response, measured: ATF4; 10 µM, without ISRIB; baseline: DMSO).
For CCOC(=O)[C@@H]1CSCC(=O)N[C@@H](CC)C(=O)N(C)[C@@H](C)C(=O)N[C@H](CC(C)C)C(=O)N2CCC[C@@H]2C(=O)N(CC(C)C)CC(=O)N[C@H](CC(C)C)C(=O)N(C)[C@@H](C)C(=O)N[C@@H](CC(C)C)C(=O)N1C, the logD was 1.85 (hydrocarbon/water).

For quick reference, copied from above (sample 3):
`AACTTCGG` has an E-score of -0.0438.
`CCCGTCTC` gave an E-score of 0.223.
The E-score of `ACACCAAT` is reported as -0.112.
The E-score of `AATCTTGA` is reported as -0.0969.
